Assay results pooled from the literature.
Protocols differ between the studies behind these lines. ± gives the spread as reported.
blaNDM-1: Metallo-beta-lactamase type 2 (blaNDM-1, Klebsiella pneumoniae, UniProt C7C422)
Sequence of UniProt C7C422 (whole entry, looked up): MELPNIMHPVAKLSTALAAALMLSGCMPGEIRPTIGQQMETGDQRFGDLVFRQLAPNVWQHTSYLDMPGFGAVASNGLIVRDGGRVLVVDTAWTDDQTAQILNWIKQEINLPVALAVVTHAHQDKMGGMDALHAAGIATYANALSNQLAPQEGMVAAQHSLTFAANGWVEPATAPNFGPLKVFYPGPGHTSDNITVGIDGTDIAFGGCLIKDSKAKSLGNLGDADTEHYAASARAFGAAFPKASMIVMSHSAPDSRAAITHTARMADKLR
Formate-nitrite transporter: Formate-nitrite transporter (Plasmodium falciparum, UniProt O77389)
Sequence of UniProt O77389 (whole entry, looked up): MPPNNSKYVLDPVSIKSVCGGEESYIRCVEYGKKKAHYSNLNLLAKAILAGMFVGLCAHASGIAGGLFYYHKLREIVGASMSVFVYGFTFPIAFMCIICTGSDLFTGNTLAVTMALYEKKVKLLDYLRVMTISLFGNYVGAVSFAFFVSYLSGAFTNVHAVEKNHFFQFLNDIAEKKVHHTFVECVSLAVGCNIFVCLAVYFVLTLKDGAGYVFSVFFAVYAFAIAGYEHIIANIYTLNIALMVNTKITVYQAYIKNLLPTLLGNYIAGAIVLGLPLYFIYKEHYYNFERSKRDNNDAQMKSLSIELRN
Proteasome subunit beta type-3/PSMB7: Proteasome subunit beta type-3/PSMB7 (Homo sapiens, UniProt P49720+Q99436)
Sequence of UniProt Q99436 (whole entry, looked up): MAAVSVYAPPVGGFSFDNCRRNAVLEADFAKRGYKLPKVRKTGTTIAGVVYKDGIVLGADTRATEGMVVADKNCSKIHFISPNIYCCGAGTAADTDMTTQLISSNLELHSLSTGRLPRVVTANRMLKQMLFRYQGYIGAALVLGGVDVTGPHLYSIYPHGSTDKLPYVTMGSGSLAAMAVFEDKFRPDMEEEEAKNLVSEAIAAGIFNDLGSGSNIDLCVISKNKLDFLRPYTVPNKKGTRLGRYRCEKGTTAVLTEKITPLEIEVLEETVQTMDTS
Sequence of UniProt P49720 (whole entry, looked up): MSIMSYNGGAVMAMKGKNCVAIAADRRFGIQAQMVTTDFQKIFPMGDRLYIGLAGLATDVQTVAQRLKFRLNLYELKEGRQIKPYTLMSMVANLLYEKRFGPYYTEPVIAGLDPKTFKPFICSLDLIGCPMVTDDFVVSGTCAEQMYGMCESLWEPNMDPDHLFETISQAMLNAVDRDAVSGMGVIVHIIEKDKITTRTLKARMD
SIRT5: NAD-dependent protein deacylase sirtuin-5, mitochondrial (SIRT5, Homo sapiens, UniProt Q9NXA8)
Sequence of UniProt Q9NXA8 (whole entry, looked up): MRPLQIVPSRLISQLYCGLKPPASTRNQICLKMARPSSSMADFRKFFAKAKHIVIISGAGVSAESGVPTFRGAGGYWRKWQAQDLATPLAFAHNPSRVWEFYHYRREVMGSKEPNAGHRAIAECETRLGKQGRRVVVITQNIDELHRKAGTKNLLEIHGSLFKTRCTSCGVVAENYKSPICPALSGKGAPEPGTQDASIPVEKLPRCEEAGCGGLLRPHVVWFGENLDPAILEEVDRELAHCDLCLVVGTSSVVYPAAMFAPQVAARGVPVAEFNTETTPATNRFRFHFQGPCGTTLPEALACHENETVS
lasR: Transcriptional activator protein LasR (lasR, Pseudomonas aeruginosa, UniProt P25084)
Sequence of UniProt P25084 (whole entry, looked up): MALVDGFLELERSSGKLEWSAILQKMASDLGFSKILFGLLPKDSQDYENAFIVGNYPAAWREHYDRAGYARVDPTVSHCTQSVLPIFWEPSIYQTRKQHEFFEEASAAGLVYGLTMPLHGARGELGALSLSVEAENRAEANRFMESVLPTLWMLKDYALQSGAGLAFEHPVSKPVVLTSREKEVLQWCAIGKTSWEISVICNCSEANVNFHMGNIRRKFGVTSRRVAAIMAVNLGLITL
Sequence of UniProt P11712 (whole entry, looked up): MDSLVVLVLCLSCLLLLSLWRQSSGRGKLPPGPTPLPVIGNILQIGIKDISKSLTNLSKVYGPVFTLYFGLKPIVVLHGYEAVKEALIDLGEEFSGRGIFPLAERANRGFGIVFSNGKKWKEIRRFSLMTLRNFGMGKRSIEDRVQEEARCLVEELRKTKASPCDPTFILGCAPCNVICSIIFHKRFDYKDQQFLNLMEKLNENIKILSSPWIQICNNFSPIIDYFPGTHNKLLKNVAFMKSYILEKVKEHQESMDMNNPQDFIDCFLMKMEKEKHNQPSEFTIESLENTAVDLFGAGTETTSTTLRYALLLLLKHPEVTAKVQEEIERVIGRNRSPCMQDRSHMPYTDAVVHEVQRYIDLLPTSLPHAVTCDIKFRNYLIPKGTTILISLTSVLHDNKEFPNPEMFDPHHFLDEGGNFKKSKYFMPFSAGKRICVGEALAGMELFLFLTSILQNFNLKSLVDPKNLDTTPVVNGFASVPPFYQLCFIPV
Sequence of UniProt O55040 (whole entry, looked up): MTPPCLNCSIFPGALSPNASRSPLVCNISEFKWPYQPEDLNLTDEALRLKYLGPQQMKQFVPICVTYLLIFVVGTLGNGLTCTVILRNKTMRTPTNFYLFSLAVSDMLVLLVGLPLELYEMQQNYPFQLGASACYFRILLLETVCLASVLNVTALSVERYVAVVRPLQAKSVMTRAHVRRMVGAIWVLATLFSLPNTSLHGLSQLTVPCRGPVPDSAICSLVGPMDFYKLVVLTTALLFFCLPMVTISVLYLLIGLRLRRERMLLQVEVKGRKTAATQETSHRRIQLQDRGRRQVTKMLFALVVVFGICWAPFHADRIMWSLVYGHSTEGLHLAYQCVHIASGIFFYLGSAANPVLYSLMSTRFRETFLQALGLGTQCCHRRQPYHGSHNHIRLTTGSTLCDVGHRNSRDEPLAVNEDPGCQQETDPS
Sequence of UniProt P35368 (whole entry, looked up): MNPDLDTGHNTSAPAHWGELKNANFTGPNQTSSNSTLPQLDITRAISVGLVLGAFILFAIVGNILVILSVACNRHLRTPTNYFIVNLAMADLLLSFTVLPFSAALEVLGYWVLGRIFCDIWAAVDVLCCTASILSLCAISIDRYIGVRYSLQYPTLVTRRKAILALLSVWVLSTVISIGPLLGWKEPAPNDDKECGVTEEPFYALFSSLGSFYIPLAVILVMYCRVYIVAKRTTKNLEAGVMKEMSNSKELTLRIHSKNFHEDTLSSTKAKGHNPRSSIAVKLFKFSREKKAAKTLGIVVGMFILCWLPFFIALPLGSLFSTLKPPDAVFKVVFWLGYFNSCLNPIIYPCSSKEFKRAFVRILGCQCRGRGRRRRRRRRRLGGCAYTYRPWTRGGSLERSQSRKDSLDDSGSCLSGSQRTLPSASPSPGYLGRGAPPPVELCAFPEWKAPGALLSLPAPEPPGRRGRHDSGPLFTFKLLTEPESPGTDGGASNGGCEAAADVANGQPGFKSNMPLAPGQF
Sequence of UniProt P61073 (whole entry, looked up): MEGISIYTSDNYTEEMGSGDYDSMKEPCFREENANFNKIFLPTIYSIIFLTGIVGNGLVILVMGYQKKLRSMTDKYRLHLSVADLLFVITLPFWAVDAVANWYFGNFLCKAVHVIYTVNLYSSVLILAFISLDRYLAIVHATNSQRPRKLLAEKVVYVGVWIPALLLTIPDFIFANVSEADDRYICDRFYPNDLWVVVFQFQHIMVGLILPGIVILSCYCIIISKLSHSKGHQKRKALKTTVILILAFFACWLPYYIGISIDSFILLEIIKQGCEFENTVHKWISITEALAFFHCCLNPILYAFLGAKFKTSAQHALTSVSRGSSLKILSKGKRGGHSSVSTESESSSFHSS
Sequence of UniProt P26718 (whole entry, looked up): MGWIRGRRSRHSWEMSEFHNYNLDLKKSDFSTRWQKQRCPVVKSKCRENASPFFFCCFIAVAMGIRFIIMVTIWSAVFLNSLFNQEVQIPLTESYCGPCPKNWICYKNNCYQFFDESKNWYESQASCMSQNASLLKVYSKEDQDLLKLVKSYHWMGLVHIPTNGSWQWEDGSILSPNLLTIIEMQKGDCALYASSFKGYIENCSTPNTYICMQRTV
Sequence of UniProt Q8IXJ6 (whole entry, looked up): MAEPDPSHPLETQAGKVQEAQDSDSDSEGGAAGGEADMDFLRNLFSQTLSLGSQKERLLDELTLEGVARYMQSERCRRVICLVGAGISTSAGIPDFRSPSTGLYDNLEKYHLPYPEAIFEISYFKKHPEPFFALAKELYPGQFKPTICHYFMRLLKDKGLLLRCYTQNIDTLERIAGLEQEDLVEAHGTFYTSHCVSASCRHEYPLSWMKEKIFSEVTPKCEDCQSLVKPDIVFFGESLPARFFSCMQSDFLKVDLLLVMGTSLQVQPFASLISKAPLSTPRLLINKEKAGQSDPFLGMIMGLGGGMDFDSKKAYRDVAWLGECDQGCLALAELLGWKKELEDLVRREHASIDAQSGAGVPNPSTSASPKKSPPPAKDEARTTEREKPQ
Sequence of UniProt P0A6M2 (whole entry, unmodified, looked up): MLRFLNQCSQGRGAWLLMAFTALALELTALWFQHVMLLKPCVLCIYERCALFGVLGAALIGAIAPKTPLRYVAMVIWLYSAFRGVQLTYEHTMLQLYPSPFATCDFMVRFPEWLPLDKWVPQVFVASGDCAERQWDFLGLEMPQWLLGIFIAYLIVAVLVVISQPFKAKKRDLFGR
Sequence of UniProt Q460N3 (whole entry, looked up): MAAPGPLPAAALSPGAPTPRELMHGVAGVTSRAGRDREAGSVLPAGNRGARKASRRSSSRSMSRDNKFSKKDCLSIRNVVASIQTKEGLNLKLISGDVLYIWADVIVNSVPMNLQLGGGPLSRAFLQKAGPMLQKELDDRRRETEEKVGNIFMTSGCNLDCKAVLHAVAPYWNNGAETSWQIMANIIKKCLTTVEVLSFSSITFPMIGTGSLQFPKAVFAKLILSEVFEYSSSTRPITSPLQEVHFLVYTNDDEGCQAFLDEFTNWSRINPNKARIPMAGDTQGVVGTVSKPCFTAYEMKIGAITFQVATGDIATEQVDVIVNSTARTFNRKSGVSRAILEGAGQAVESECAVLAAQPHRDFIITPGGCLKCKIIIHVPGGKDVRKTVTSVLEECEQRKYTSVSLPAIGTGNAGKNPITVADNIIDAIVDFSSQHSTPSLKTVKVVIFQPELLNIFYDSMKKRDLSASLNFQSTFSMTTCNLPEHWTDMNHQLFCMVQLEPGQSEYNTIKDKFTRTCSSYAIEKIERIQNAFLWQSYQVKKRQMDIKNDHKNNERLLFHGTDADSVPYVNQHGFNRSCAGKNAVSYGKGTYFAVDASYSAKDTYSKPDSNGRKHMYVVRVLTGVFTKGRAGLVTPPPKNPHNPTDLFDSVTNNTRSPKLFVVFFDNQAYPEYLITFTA

The IC50 of `O=c1c(N2CCCC2)c(Cl)cnn1-c1ccccc1` is reported as 7.16 to 9.71 µM (Disulfide bond formation protein B (Escherichia coli, UniProt P0A6M2, C49V/C8A); enzyme activity, inhibitor).
The IC50 of `CCCC[C@@H]1NC(=O)[C@@H](CCCCN)NC(=O)[C@H]2CCCN2C(=O)[C@H](CCC(=O)O)NC(=O)[C@@H]2C[C@@H](O)CN2C(=O)[C@H](Cc2ccccc2CN)NC(=O)[C@@H]2CCCN2C(=O)[C@@H](CS)NC1=O` is reported as 3.14 µM (blaNDM-1; enzyme activity, inhibitor, absorbance).
`O=C(C=C(O)C(F)(F)C(F)(F)F)c1ccsc1` gave an IC50 of 0.028 ± 0.005 µM (Formate-nitrite transporter; L-lactate transport, inhibitor, fluorescence; yeast; pH 6.8, with: L-lactate 1 mM).
With `CC1(C)CC=C(c2ccccc2)c2cc(/C=C/c3ccc(C(=O)O)cc3)ccc21` the IC50 was 0.0075 µM (Retinoic acid receptor alpha (RARA, Homo sapiens, UniProt P10276)).
For `CCCN(C)c1ccc(C(=O)C=C(O)C(F)(F)C(F)(F)F)cn1`, the IC50 was 0.176 ± 0.019 µM (Formate-nitrite transporter; L-lactate transport, inhibitor, fluorescence; yeast; pH 6.8, with: L-lactate 1 mM).
For `O=C(O)C1=C[C@H](O)[C@@H](NC(=O)c2ccc(-c3ccccc3)cc2)[C@H]([C@H](O)[C@H](O)CO)O1`, the IC50 was > 500 µM (Sialidase-1 (NEU1, Homo sapiens, UniProt Q99519); enzyme activity, inhibitor).
With `O=P(O)(O)C(Nc1cc(Cl)cc(Cl)c1)P(=O)(O)O` the IC50 was 216 ± 8.8 µM (polyphosphate kinase 2 (Cytophaga hutchinsonii, UniProt A0A6N4SMB5); enzyme activity, inhibitor, HPLC; 30 min, 37 °C, with: 0.04 mM ADP and 0.3 mM polyP).
The IC50 of `CN(C(=O)c1ccn2ncc(-c3ccc(C(N)=O)cc3)c2c1)c1ccc(C#N)cn1` is reported as 0.0137 ± 0.0065 µM (Phosphatidylinositol 4-kinase (Cryptosporidium parvum, UniProt Q5CVD3); enzyme activity, inhibitor, Transcreener ADP2 FP).
With `CC(C)C[C@H](NC(=O)[C@H](Cc1ccc(CN)cc1)NC(=O)[C@H](Cc1ccccc1)N=[N+]=[N-])C(=O)N[C@@H](CCC1CCCCC1)C(=O)[C@@]1(C)CO1` the IC50 was 0.0389 µM (Proteasome subunit beta type-7 (PSMB7, Homo sapiens, UniProt Q99436); inhibitor, competitive ABPP; Raji cell lysate; constitutive proteasome β2c).
`CNC(=S)NCCCC[C@H](NC(=O)CCc1ccccc1)C(=O)N[C@@H](CCCNC(=N)N)C(=O)N[C@@H](CC1CCCCC1)C(=O)N[C@H](CCCCN)C(=O)N[C@@H](CC1CCCCC1)C(=O)N[C@H](CCCNC(=N)N)C(=O)N[C@@H](CC1CCCCC1)C(N)=O` has an IC50 of 1.08 µM (NAD-dependent protein deacetylase sirtuin-2 (SIRT2, Homo sapiens, UniProt Q8IXJ6); enzyme activity, inhibitor, fluorescence).
For `CN(C)C(=O)[C@@H](NC(=O)c1cc(-c2ccnn2C)ccc1-c1ccc(C(F)(F)F)cc1)c1cccc(C(F)(F)F)c1`, the IC50 was 0.4 µM (NKG2-D type II integral membrane protein, with ULBP1 (KLRK1, Homo sapiens, UniProt P26718); ligand binding, inhibitor, cellular TR-FRET displacement; with: human ULBP1-AF647 at KD).
`FC(F)(F)C(F)(F)c1cc(-c2cccnc2)n[nH]1` has an IC50 of 43.5 ± 21 µM (Formate-nitrite transporter; L-lactate transport, inhibitor, fluorescence; yeast; pH 6.8, with: L-lactate 1 mM).
`CSCC[C@H]1NC(=O)[C@H](Cc2ccccc2)NC(=O)[C@H](NC(=O)[C@@H](N)CCCCN)CSC(=O)[C@H](C(C)C)NC(=O)[C@H](Cc2ccccc2)NC1=O` gave an IC50 of 1.4 µM (Histidine kinase AgrC (Listeria monocytogenes, UniProt A8E0G3); agr signalling).
`O=C(c1cc(Cc2n[nH]c(=O)c3ccccc23)ccc1F)N1CC(CNC2CC2)C1` has an IC50 of > 10 µM (Protein mono-ADP-ribosyltransferase PARP15 (PARP15, Homo sapiens, UniProt Q460N3); enzyme activity, inhibitor).
With `O=C(O)CCn1c(=O)oc2cc(Cl)c(Cl)cc21` the IC50 was > 25.1 µM (Alpha-1B adrenergic receptor (ADRA1B, Homo sapiens, UniProt P35368); antagonist; median value).
With `CC(C)N1CCCCC1C(=O)NC(Cc1ccc(-c2ccccc2)cc1)B(O)O` (stereo not shown) the IC50 was > 10 µM (Proteasome subunit beta type-3/PSMB7; β2c trypsin-like activity, inhibitor; constitutive proteasome, with: Ac-KQL-AMC).
`Cc1nc(N2CCC(N(C)c3cc(C(=O)NCCN4CCCC4)cnn3)CC2)nc(C)c1CC(C)C` gave an IC50 of > 30 µM (Cytochrome P450 2C19 (CYP2C19, Homo sapiens, UniProt P33261); enzyme activity, inhibitor).
With `Cc1nc(C)c(F)c(N2CCC(C3NC(=O)C3(C)C)CC2)n1` (stereo not shown) the IC50 was > 50 µM (Uncharacterized hydrolase SAUSA300_2518 (Staphylococcus aureus, UniProt Q2FDS6); enzyme activity, inhibitor).
With `O=C(C=C(O)C(F)(F)C(F)(F)F)c1cccs1` the IC50 was 0.061 ± 0.002 µM (Formate-nitrite transporter; L-lactate transport, inhibitor, fluorescence; yeast; pH 6.8, with: L-lactate 1 mM).
`O=C(NCCCC[C@H](NS(=O)(=O)c1cccc(F)c1)C(=O)N[C@@H](Cc1c[nH]c2ccccc12)C(=O)NC1CCC1)c1cncc(OS(=O)(=O)F)c1` gave an IC50 of 20 ± 13 µM (SIRT5; inhibitor, fluorogenic; 4 h preincubation, His-tagged enzyme 150 nM, with: NAD+ 500 µM).
`O=C(CCCCCCCCCN=C=S)CC(=O)N[C@H]1CCOC1=O` — result for IC50: “no inhibition” (lasR; plasI-LVAgfp reporter, antagonist; PAO-JP2 pump-active; with: OdDHL 150 nM).
`CC[C@H](C)[C@@H]1NC(=O)[C@@H]2CCCN2C(=O)[C@@H](CS)NC(=O)[C@H](Cc2ccc(O)cc2)NC(=O)[C@@H](CCCNC(=N)N)NC(=O)[C@@H]([C@H](C)O)NC(=O)[C@H](CCC(=O)O)NC(=O)[C@@H]2CCCN2C1=O` gave an IC50 of 7.38 µM (blaNDM-1; enzyme activity, inhibitor, absorbance).
For `CCCCCCCCCC(=O)CC(=O)Nc1ccccc1O`, IC50 read “no inhibition” (lasR; reporter gene, antagonist; Escherichia coli, JLD271 with LasR plasmid; with: OdDHL 2 nM).
The IC50 of `N=C(N)NCCC[C@H](NC(=O)[C@H](CCCCNC(=O)c1cncc(OS(=O)(=O)F)c1)NS(=O)(=O)c1cccc(F)c1)C(=O)NC1CCC1` is reported as 7.3 ± 0.3 µM (SIRT5; inhibitor, fluorogenic; pre-incubation 16 h, with: NAD+ 500 µM).
`CC[C@H](C)[C@@H]1NC(=O)[C@@H]2CCCN2C(=O)[C@@H](CS)NC(=O)[C@H](CC(C)C)NC(=O)[C@@H](CCCNC(=N)N)NC(=O)[C@@H](CCCNC(=N)N)NC(=O)[C@H](CCC(=O)O)NC(=O)[C@@H]2CCCN2C1=O` gave an IC50 of 1.15 µM (blaNDM-1; enzyme activity, inhibitor, absorbance).
`O=C(C=C(O)C(F)(F)C(F)(F)F)c1ccc(NC(=O)c2ccccc2)nc1` gave an IC50 of 0.237 ± 0.009 µM (Formate-nitrite transporter; L-lactate transport, inhibitor, fluorescence; yeast; pH 6.8, with: L-lactate 1 mM).
`CC(C)C[C@H](NC(=O)[C@H](Cc1ccccc1)NC(=O)[C@H](CCCNC(=N)N)NC(=O)[C@H](C)NC(=O)CNC(=O)[C@@H]1CCCN1)B(O)O` has an IC50 of 0.085 µM (Proteasome subunit beta type-3/PSMB7; trypsin-like activity, inhibitor; human proteasome 10 nM; with: Boc-LRR-AMC).
`C#CCNC(=O)c1ccc(S(=O)(=O)N[C@@H](CCCCNC(=O)c2cc(OS(=O)(=O)F)c3ccccc3c2O)C(=O)N[C@@H](Cc2c[nH]c3ccccc23)C(=O)NC2CCC2)cc1` has an IC50 of 6.12 ± 0.08 µM (SIRT5; inhibitor, fluorogenic; 4 h preincubation, His-tagged enzyme 150 nM, with: NAD+ 500 µM).
For `Cc1ccc2c(n1)c(-c1cccc(S(C)(=O)=O)c1)c(C)n2C/C(F)=C/CN`, the IC50 was 0.22 µM (Cytochrome P450 2C9 (CYP2C9, Homo sapiens, UniProt P11712); enzyme activity, inhibitor; human liver microsomes; without NADPH preincubation).
The IC50 of `CSCC[C@H](NC(=O)[C@@H](N)CCCNC(=N)N)C(=O)N[C@@H](CO)C(=O)N[C@@H](C)C(=O)N1CCC[C@H]1C(=O)N[C@@H](CO)C(=O)N[C@H](C(=O)NCC(=O)NCC(=O)N[C@H](C(=O)O)C(C)C)[C@@H](C)O` is reported as > 38.7 µM (HLA class I histocompatibility antigen, A alpha chain, allele A*02:06 (Homo sapiens, UniProt P04439); binding).
`O=P(O)(O)Oc1cc(-c2cc(OP(=O)(O)O)c(OP(=O)(O)O)c(OP(=O)(O)O)c2)cc(OP(=O)(O)O)c1OP(=O)(O)O` has an IC50 of 5.5 ± 0.5 µM (Type II inositol 1,4,5-trisphosphate 5-phosphatase (Homo sapiens, UniProt P32019)).
`CC(C)C[C@@H](N)C(=O)NCC(=O)N[C@H](C)C(=O)N[C@H](CO)C(=O)N[C@H](Cc1c[nH]c2ccccc12)C(=O)N[C@H](Cc1c[nH]cn1)C(=O)N[C@H](CCCNC(=N)N)C(=O)N1CCC[C@@H]1C(=O)N[C@H](CC(=O)O)C(=O)N[C@H](CCCCN)C(=O)N[C@H](CCCCN)C(=O)N[C@H](CCCNC(=N)N)C(=O)NCCCCCC(=O)N[C@@H](CCCCN)C(=O)N[C@@H](CCCNC(=N)N)C(=O)N[C@@H](CCCCN)C(=O)N[C@@H](CS)C(=O)N[C@H](C(=O)N[C@@H](CCCNC(=N)N)C(=O)N1CCC[C@H]1C(=O)N[C@@H](CC(N)=O)C(=O)N[C@@H](CC(N)=O)C(=O)N[C@@H](CC(N)=O)C(=O)N[C@H](C(N)=O)[C@@H](C)O)[C@@H](C)O` has an IC50 of 0.048 µM (C-X-C chemokine receptor type 4 (CXCR4, Homo sapiens, UniProt P61073); antagonist; concentration not given).
For `COCCCC1CCCCN1C(=O)Oc1ccc([N+](=O)[O-])cc1` (stereo not shown), the IC50 was > 100 µM (Dipeptidyl peptidase 4 (DPP4, Homo sapiens, UniProt P27487); enzyme activity, inhibitor, fluorescence).
`CCCC[C@@H]1NC(=O)[C@@H](CCC(N)=O)NC(=O)[C@H]2CCCN2C(=O)[C@H](CCCCN)NC(=O)[C@@H]2C[C@@H](O)CN2C(=O)[C@H](Cc2ccccc2CN)NC(=O)[C@@H]2CCCN2C(=O)[C@@H](CS)NC1=O` has an IC50 of 129 µM (blaNDM-1; enzyme activity, inhibitor, absorbance).
With `CCCCCCCCCCCCCCCCCC(=O)NC[C@H]1CC[C@H](C(=O)N[C@@H](CCC(=O)NCCCOCCOCCOCCCNC(=O)COCC(=O)N[C@@H](Cc2ccc(O)cc2)C(=O)NC(C)(Cc2ccccc2)C(=O)N[C@@H](CC(C)C)C(=O)N[C@@H](CCCC)C(=O)N[C@@H](CCCNC(=N)N)C(=O)N2CCC[C@H]2C(=O)N[C@@H](CCCNC(=N)NC)C(=O)N[C@@H](CC(N)=O)C(N)=O)C(=O)O)CC1` (stereo partly shown) the IC50 was 0.011 µM (Neuromedin-U receptor 1 (Mus musculus, UniProt O55040); β-arrestin recruitment, antagonist, PathHunter luminescence; 30 min preincubation, with: 2 nM mouse NMU-23).
With `C#CCNC(=O)c1ccc([P+](CCCC(=O)N[C@@H](CCCCNC(=O)c2cncc(OS(=O)(=O)F)c2)C(=O)N[C@@H](CCCNC(=N)N)C(=O)NC2CCC2)(c2ccccc2)c2ccccc2)cc1` the IC50 was 18.2 ± 0.6 µM (SIRT5; inhibitor, fluorogenic; pre-incubation 4 h, with: NAD+ 500 µM).
`CCC(C(=O)Nc1ccccc1C)n1c(SCc2ccc(F)cc2)nc2ncccc21` (stereo not shown) has an IC50 of > 100 µM (Prothrombin (F2, Homo sapiens, UniProt P00734); enzyme activity, inhibitor).
